Assay results from different studies.
Numbers after ± are the reported error.

Structure (SMILES) | cell line | assay | system | setting | how to read | viability
CC(C)(C)[C@H](NC(=O)[C@H](CCONC(=N)N)NC(=O)Cc1ccc(CNC(=N)N)cc1)C(=O)N[C@@H](CCONC(=N)N)C(=O)NCc1ccc(C(=N)N)cc1 | primary human hepatocytes | MTS | – | up to 100 µM, 24 h | – | no effect
CC(C)Cc1ccc(C(C)C(=O)N/N=C/c2ccc(OCC(=O)N/N=C/c3ccc([N+](=O)[O-])cc3)cc2)cc1 (stereo not shown) | HEK293 | MTT | – | 80 µM, 48 h | – | 47.2%
CC(C)CCC[C@@H](C)[C@H]1CCC([C@@H]2CC[C@H]3C[C@@H](O)CC[C@]3(C)[C@@H]2O)[C@]1(C)CC(=O)O (stereo partly shown) | HEK293T | CellTiter-Blue | – | concentration not given | – | 45%
N=C(N)NCCC[C@@H]1NC(=O)[C@H](CCCNC(=N)N)NC(=O)[C@H](CCCNC(=N)N)NC(=O)[C@H](Cc2c[nH]c3ccccc23)NC(=O)[C@H](Cc2c[nH]c3ccccc23)NC(=O)[C@H](Cc2c[nH]c3ccccc23)NC(=O)[C@H](Cc2c[nH]c3ccccc23)NC(=O)[C@H](CCCNC(=N)N)NC1=O | HEK293T | MTS | – | 50 µM, 24 h | – | ~60%
CC(C)Cc1ccc(C(C)C(=O)NN=Cc2ccc(OCC(=O)NN=Cc3cccc([N+](=O)[O-])c3)cc2)cc1 (stereo not shown) | HEK293 | MTT | – | 150 µM, 48 h | – | 91.2%
O=C(C=Cc1ccc(O)c(OC(F)(F)F)c1)C1=C(C=Cc2ccc(O)c(OC(F)(F)F)c2)OCC1 | SH-SY5Y | MTT | – | 0.9 µM, 24 h | – | 94.1 ± 3.4%
COc1ccc([C@@H]2CC(=O)c3c(O)cc(O[C@@H]4O[C@H](CO[C@@H]5O[C@@H](C)[C@H](O)[C@@H](O)[C@H]5O)[C@@H](O[C@H]5O[C@H](CO)[C@@H](O)[C@H](O)[C@H]5O)[C@H](O)[C@H]4O)cc3O2)cc1O | MRC5 | cell growth or viability, MTS | – | 150 µg/mL, 48 h | – | 48.4%
CC(C)CCC[C@@H](C)[C@H]1CC[C@@H]([C@@H]2CC[C@H]3C[C@H](O)CC[C@]3(C)C2=O)[C@]1(C)CC(=O)NCCS(=O)(=O)O | HEK293T | CellTiter-Blue | – | 10 µM | – | > 100%
COc1cc(C=CC(=O)CC(=O)C=Cc2ccc(OCC(=O)O)c(OC)c2)ccc1O | SH-SY5Y | MTT | – | 0.9 µM, 24 h | – | 96.1 ± 5.4%
CC(C)Cc1ccc(C(C)C(=O)N/N=C/c2ccc(OCC(=O)N/N=C/c3c(O)ccc4ccccc34)cc2)cc1 (stereo not shown) | HEK293 | MTT | – | 150 µM, 48 h | – | 25.5%
Cc1cc(C)cc(C(=O)Nc2cccc(S(N)(=O)=O)c2)c1 | HEK293T | MTT | serum-free medium | 100 µM, 24 to 48 h | baseline: untreated | 86 ± 0.3%
COc1cccc(/C=N/NC(=O)COc2ccc(/C=N/NC(=O)C(C)c3ccc(CC(C)C)cc3)cc2)c1O (stereo not shown) | HEK293 | MTT | – | 10 µM, 48 h | – | 64.1%
O=S(=O)(O)CC1CSSCC(CS(=O)(=O)O)SS1 (stereo not shown) | OECM1 | – | – | 127 µM, 4 d | – | 59.8%
O=C(C=Cc1ccc(O)c(OC(F)(F)F)c1)C(CCOCCOCCOCCO)C(=O)C=Cc1ccc(O)c(OC(F)(F)F)c1 (stereo not shown) | SH-SY5Y | MTT | – | 0.9 µM, 24 h | – | 99.6 ± 6.2%
CC(C)Cc1ccc(C(C)C(=O)N/N=C/c2ccc(OCC(=O)N/N=C/c3cccc(O)c3)cc2)cc1 (stereo not shown) | HEK293 | MTT | – | 150 µM, 48 h | – | 47.6%
CCCCCCCCCCN1C(=O)/C(=N\NC(=N)N)c2cc(C)ccc21 | BJ normal fibroblasts | MTT | – | up to 2 µg/mL, 24 h | – | > 80%

A few entries again:
Structure (SMILES) | cell line | assay | system | setting | how to read | viability
COc1ccc([C@@H]2CC(=O)c3c(O)cc(O[C@@H]4O[C@H](CO[C@@H]5O[C@@H](C)[C@H](O)[C@@H](O)[C@H]5O)[C@@H](O[C@H]5O[C@H](CO)[C@@H](O)[C@H](O)[C@H]5O)[C@H](O)[C@H]4O)cc3O2)cc1O | MRC5 | cell growth or viability, MTS | – | 150 µg/mL, 48 h | – | 48.4%
